Results from different studies.
Each line is one published result; not all experiments were run side by side. Converted amounts (≈) assume the structure as drawn.

`CN[C@@H]1[C@H](O)[C@H](NC)[C@H]2O[C@]3(O)[C@H](O[C@@H]2[C@H]1O)O[C@H](C)C[C@H]3NC(=O)Cc1ccc(F)cn1` gave a fraction unbound of 0.723 (rat plasma).
The kinetic solubility of `COc1ccc2nc(C)cc(OCC(=O)Nc3ccccc3OC)c2c1` is reported as 38 µM (≈ 13.4 µg/mL) (CLND; phosphate-buffered saline; 1 (unit not given), pH 7.4).
Under plasma concentration, `N[C@]1(c2ccccc2Cl)CCC[C@H](O)C1=O` is recorded as “not detected” (Wistar rat, plasma; 20 mg/kg, 72 h).
`Cc1cccc(-c2nc(Nc3ccncn3)c3sccc3n2)n1` gave an intrinsic clearance of 3.6 mL/min/g (human liver microsomes).
`N=C(N)NCCCCCCN1CCC23c4c5ccc(O)c4OC2c2nc4ccccc4cc2CC3(O)C1C5` (stereo not shown) has a half-life of greater than 2 h (metabolic stability; human, liver microsomes; 1 µM, pH 7.4).
With `CN[C@@H]1[C@H](O)[C@H](NC)[C@H]2O[C@]3(O)[C@H](O[C@@H]2[C@H]1O)O[C@H](C)C[C@H]3NC(=O)Cc1cscn1` the fraction unbound was 0.869 (rat plasma).
`Cc1cccc(-c2nc(Nc3ccncn3)c3c(C)csc3n2)n1` gave a kinetic solubility of 23 µM (≈ 7.69 µg/mL) (CLND; phosphate-buffered saline; 1 (unit not given), pH 7.4).
`CC[C@H](C)[C@H](NC(=O)[C@H](CCCCN)NC(=O)[C@@H](NC(=O)[C@H](CS)NC(=O)[C@H](CCCNC(=N)N)NC(=O)[C@H](CCCNC(=N)N)NC(=O)[C@H](CC(N)=O)NC(=O)[C@H](CCCNC(=N)N)NC(=O)[C@H](CS)NC(=O)[C@@H](NC(=O)[C@H](CO)NC(=O)[C@@H](NC(=O)[C@H](CS)NC(=O)[C@H](CCCCN)NC(=O)[C@@H](N)CCCNC(=N)N)[C@@H](C)CC)C(C)C)[C@@H](C)CC)C(=O)N[C@@H](CS)C(=O)N[C@@H](CCCNC(=N)N)C(=O)O`: “single disulfide form” 24% (LC-MS; PBS; 0.1 mg/mL).
With `c1cc2c(s1)CCOC21CCN(Cc2ccc3c(c2)OCCO3)CC1` the kinetic solubility was no less than 260 µM (CLND; phosphate-buffered saline; 1 (unit not given), pH 7.4).
With `CN[C@@H]1[C@H](O)[C@H](NC)[C@H]2O[C@]3(O)[C@H](O[C@@H]2[C@H]1O)O[C@H](C)C[C@H]3NC(=O)Cc1ccc(Cl)cn1` the fraction unbound was 0.875 (rat plasma).
`COc1ccc(-n2cc(C(=O)N3C[C@]4(OC(=O)c5ccccc5NC(C)=O)CC[C@H](OC)[C@@]56[C@@H]4C[C@@H]([C@@H]35)[C@@]3(O)C[C@H](OC)[C@H]4C[C@@H]6[C@]3(O)[C@H]4OC)nn2)cc1` has a Vd of 22.8 L/kg (Sprague-Dawley rat, plasma; intravenous, 2 mg/kg).
`CC1=C[C@H]2c3c(O)cc(CCc4ccccc4)cc3OC(C)(C)[C@H]2CC1` gave a plasma concentration of 1790 nM (LC-MS/MS; male BALB/c mouse, plasma; intraperitoneal, 50 mg/kg, 1 h, added: Δ9-trans-THC 10 mg/kg and trans-PET 40 mg/kg).
The intrinsic clearance of `Cc1ccc2nc(C)c(C(=O)NCc3ccc(C(F)(F)F)cc3)n2c1` is reported as 78 mL/min/g protein (dog liver microsomes).
